Published values collected from several papers.
Each numbered part is a random draw from the data of one study; scales do not carry over between parts. Positions count from the first letter of the parent shown.

Sample 1 — target: CCNF, cyclin fold, Cln2 fusion (human); method: yeast growth competition, sequencing; medium: yeast; setting: strong parent motif; reference: not given; reading: higher = stronger binding; measurement: normalised enrichment score
Starting sequence: ORC1 docking peptide (human); PRARKRLELGNLG
Change = L12C; result = 3.69
Change = G13K; result = 3.14
Change = A3H; result = 1.49
Change = R2P; result = 4.38
Change = G10L; result = 2.57
Change = G13C; result = 3.39
Change = P1I; result = 3.64
Change = A3V; result = 3.88
Change = A3C; result = 6.75
Change = R6V; result = 0.847
Change = L7S; result = 1.85
Change = G10A; result = 2.85
Change = R2D; result = 2.68
Change = K5P; result = 0.407
Change = L9K; result = 1.25
Change = R4V; result = 1.62
Change = L12S; result = 3.45
Change = N11Y; result = 5.2
Change = R6A; result = 0.395
Change = P1R; result = 3.01

Sample 2 — method: protein-binding microarray; molecule type: double-stranded DNA, one strand shown; medium: in vitro; concentration: 940 nM top; setting: 60-bp whole probe; together with: salmon DNA 0.4 mg/ml; reference: random background probes; reading: higher = stronger binding; measurement: fitted relative affinity; shared flanks, not repeated: GCCTAGCAC … GTCTTGATTCGCTTGACGCTGCTG
Target: Interferon regulatory factor 5, full length, phosphomimetic (IRF5, Homo sapiens, UniProt Q13568-2, residues 1-514, S451D/S453D/S456D/S462D)
Sequence = TTAGGTTTCGGGACTGGGCTAGTGCTA; result = 6.86 z-score
Sequence = ATAGGTATCGGGTATCGGTTAGTGCTA; result = 6.38 z-score
Sequence = GACCGACTGGACTATCGGGACGTGCTA; result = -0.257 z-score
Sequence = GACAGTCTCGGTATCGGGACGTGCTAG; result = 6.58 z-score
Sequence = TCACCTTCCTCTTTTACACTGTGCTAG; result = 1.23 z-score
Sequence = TTAGGACTGGGTTCCGGTTAGTGCTAG; result = 0.346 z-score
Sequence = GACGGCCTGCTTTTCCTGACGTGCTAG; result = -0.155 z-score
Sequence = TTGTGTCTGGGATTTTGTCCGTGCTAG; result = -0.494 z-score
Sequence = TCCATTTTCAGAATTTACTTGTGCTAG; result = 0.829 z-score
Sequence = TCATCTTTCACTGCTGCACTGTGCTAG; result = 1.58 z-score
Sequence = TTAGGTCTCCTACAGCTTTAGTGCTAG; result = -0.0852 z-score
Sequence = CCTCCTCTCTCTTTCCACTTGTGCTAG; result = 2.3 z-score
Sequence = TTGGGACTGGGTATCGGTTAGTGCTAG; result = 3.4 z-score
Sequence = TCACCTCTCCATACTTCACTGTGCTAG; result = 1.26 z-score
Sequence = TTAGATATCAGTATCGATTCGTGCTAG; result = 4.41 z-score
Sequence = GACGATTTCAGGCTGGAGACGTGCTAG; result = -0.321 z-score
Sequence = TTAGATTTCGGGTTTCGATTAGTGCTA; result = 5.74 z-score
Sequence = TTAGGTTTCCGACTGGGTTAGTGCTAG; result = 0.424 z-score
Sequence = TTAGGTTTCGGACTGGGCTAGTGCTAG; result = 6.95 z-score
Sequence = GACGGTATCGTTTTCGGGACGTGCTAG; result = 4.44 z-score
Sequence = TGAAATCTCTTTCCTTACTTGTGCTAG; result = 1.14 z-score
Sequence = GAGGAACTGGGGTATCGAGACGTGCTA; result = 0.812 z-score
Sequence = GAAGGTTCCGGTTTCGGGACGTGCTAG; result = 4.82 z-score
Sequence = TTAGGTTTCGGTTTCGGTTGGTGCTAG; result = 17.3 z-score
Sequence = CACGGTCTCCTTCTCCTGACGTGCTAG; result = 0.558 z-score

Sample 3 — target: UBE2G1 UBC core domain (UniProt P62253); method: yeast two-hybrid; medium: yeast; setting: mostly zero background; reference: not given; reading: higher = stronger interaction; measurement: lacZ reporter activity
B1: NFX1 RING domain (UniProt Q12986); chain IEQLTTEKYECMVCCELVRVTAPVWSCQSCYHVFHLNCIKKWARSPASQADGQSGWRCPACQNVSAHVPNTY
B2: ZMYND11 RING domain (UniProt Q15326); chain DEIDWETENHDWYCFECHLPGEVLICDLCFRVYHSKCLSDEFRLRDSSSPWQCPVCRSIKKKNTNKQEM
B3: MKRN3 RING domain (UniProt Q13064); chain FAVQRGMDKVCGICMEVVYEKANPNDRRFGILSNCNHSFCIRCIRRWRSARQFENRIVKSCPQCRVTSELVIPSE
B4: MARCHF1 RING domain (UniProt Q8TCQ1); chain TAPRSQSRLSVCPSTQDICRICHCEGDEESPLITPCRCTGTLRFVHQSCLHQWIKSSDTRCCELCKYDFIMETKLKPLRKWE
B5: VPS8 RING domain (UniProt Q8N3P4); chain TRGLNPKQDYCSICLQQYKRRQEMADEIIVFSCGHLYHSFCLQNKECTVEFEGQTRWTCYKCSSSNKVGKLSE
B6: RNF103 RING domain (UniProt O00237); chain WPADMLHCTECVVCLENFENGCLLMGLPCGHVFHQNCIVMWLAGGRHCCPVCRWPSYKKKQPY
B7: MID2 RING domain (UniProt Q9UJV3); chain KMETLESELTCPICLELFEDPLLLPCAHSLCFSCAHRILVSSCSSGESIEPITAFQCPTCRYVISLNHRGL
Target sequence (chain): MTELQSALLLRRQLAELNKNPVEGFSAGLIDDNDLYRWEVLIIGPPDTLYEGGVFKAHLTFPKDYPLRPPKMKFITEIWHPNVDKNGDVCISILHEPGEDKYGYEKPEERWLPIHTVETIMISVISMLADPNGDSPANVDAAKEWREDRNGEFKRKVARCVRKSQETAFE
Sequence = ASEEEFQFLRCQQCQAEAKCPKLLPCLHTLCSGCLEASGMQCPICQAPWPLGADTP (PML RING domain (UniProt P29590)); result = 0
Sequence = B1 (NFX1 RING domain); result = 0
Sequence = B2 (ZMYND11 RING domain); result = 0
Sequence = FDPPLESKYECPICLMALREAVQTPCGHRFCKACIIKSIRDAGHKCPVDNEILLENQLFP (TRAF6 RING domain (UniProt Q9Y4K3)); result = 0
Sequence = B3 (MKRN3 RING domain); result = 0
Sequence = B4 (MARCHF1 RING domain); result = 0
Sequence = B5 (VPS8 RING domain); result = 0
Sequence = ASPKIFQKTKCSICNSALELPSVHFLCGHSFHQHCFESYSESDADCPTCLPENRKVMDMI (VPS11 RING domain (UniProt Q9H270)); result = 0
Sequence = EIKEYKARLTCPCCNTRKKDAVLTKCFHVFCFECVRGRYEARQRKCPKCNAAFGAHDFHR (RNF40 RING domain (UniProt O75150)); result = 0
Sequence = B6 (RNF103 RING domain); result = 0
Sequence = B7 (MID2 RING domain); result = 0

Sample 4 — method: RNAcompete; molecule type: RNA; medium: in vitro; concentration: 20 nM; setting: 7-mer, probes averaged, single round; reference: mean of 7-mers; reading: higher = stronger binding; measurement: 7-mer Z-score
Target: PABPC1L2, full length, GST fusion (mouse, UniProt A0ABA7IW68)
Residues (chain): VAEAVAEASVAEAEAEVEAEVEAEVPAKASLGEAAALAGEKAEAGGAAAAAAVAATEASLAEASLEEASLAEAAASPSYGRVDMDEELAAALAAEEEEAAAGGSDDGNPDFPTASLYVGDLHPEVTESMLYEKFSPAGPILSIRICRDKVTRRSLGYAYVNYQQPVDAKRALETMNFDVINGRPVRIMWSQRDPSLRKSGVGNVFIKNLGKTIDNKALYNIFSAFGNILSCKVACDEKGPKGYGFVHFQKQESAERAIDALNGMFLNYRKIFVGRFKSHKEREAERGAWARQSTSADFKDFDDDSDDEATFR
Sequence = AGGUCAC; result = 0.0406
Sequence = AAGCCCC; result = -0.264
Sequence = GGAACUA; result = -0.0627
Sequence = GGAGUCU; result = -0.342
Sequence = UCGUUCU; result = -0.447
Sequence = GCCUUCC; result = -0.452
Sequence = UUUUGAG; result = -0.19
Sequence = GGGGAUG; result = 0.363
Sequence = CCCUUGU; result = -0.344
Sequence = CCAUCGC; result = -0.371
Sequence = ACUUUCC; result = -0.284
Sequence = UCAGUAG; result = -0.11
Sequence = UGGCCUA; result = -0.144
Sequence = UGGUGGA; result = 0.0605
Sequence = AAUUGAA; result = 0.227
Sequence = GAGUAUU; result = -0.233
Sequence = GGGAGAG; result = 0.148
Sequence = GCCUCGU; result = -0.385
Sequence = CUAAGUG; result = -0.106
Sequence = GGGCUGG; result = 0.187
Sequence = AUAGCAA; result = 0.00979
Sequence = CCUUAUU; result = -0.338
Sequence = CCAACAU; result = -0.0355
Sequence = AUUCGAA; result = -0.155
Sequence = GUUAUUG; result = -0.209

Repeated from above (sample 2):
Sequence = CCTCCTCTCTCTTTCCACTTGTGCTAG; result = 2.3 z-score
Sequence = GACGGTATCGTTTTCGGGACGTGCTAG; result = 4.44 z-score
Sequence = TCCATTTTCAGAATTTACTTGTGCTAG; result = 0.829 z-score
Sequence = TTAGGTTTCCGACTGGGTTAGTGCTAG; result = 0.424 z-score
Sequence = GACCGACTGGACTATCGGGACGTGCTA; result = -0.257 z-score
Sequence = CACGGTCTCCTTCTCCTGACGTGCTAG; result = 0.558 z-score
Sequence = GACGATTTCAGGCTGGAGACGTGCTAG; result = -0.321 z-score
